Literature values that unrelated publications cite.
Protocols differ between the studies behind these lines.
CYP3A4: Cytochrome P450 3A4 (CYP3A4, Homo sapiens, UniProt P08684)
Sequence of UniProt P08684 (whole entry, looked up): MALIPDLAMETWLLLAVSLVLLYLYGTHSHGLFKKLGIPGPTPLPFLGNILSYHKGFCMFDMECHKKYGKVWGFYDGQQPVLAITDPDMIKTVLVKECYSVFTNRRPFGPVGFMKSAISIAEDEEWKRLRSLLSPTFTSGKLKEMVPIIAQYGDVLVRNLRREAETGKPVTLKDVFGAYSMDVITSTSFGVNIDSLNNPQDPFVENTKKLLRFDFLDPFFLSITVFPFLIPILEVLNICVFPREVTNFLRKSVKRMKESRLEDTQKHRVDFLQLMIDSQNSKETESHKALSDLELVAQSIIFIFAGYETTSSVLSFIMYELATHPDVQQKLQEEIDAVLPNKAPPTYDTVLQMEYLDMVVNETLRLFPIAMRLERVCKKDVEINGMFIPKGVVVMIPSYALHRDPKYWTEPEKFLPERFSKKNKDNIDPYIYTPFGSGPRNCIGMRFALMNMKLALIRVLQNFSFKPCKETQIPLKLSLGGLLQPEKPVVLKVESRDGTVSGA
Sequence of UniProt Q06278 (whole entry, looked up): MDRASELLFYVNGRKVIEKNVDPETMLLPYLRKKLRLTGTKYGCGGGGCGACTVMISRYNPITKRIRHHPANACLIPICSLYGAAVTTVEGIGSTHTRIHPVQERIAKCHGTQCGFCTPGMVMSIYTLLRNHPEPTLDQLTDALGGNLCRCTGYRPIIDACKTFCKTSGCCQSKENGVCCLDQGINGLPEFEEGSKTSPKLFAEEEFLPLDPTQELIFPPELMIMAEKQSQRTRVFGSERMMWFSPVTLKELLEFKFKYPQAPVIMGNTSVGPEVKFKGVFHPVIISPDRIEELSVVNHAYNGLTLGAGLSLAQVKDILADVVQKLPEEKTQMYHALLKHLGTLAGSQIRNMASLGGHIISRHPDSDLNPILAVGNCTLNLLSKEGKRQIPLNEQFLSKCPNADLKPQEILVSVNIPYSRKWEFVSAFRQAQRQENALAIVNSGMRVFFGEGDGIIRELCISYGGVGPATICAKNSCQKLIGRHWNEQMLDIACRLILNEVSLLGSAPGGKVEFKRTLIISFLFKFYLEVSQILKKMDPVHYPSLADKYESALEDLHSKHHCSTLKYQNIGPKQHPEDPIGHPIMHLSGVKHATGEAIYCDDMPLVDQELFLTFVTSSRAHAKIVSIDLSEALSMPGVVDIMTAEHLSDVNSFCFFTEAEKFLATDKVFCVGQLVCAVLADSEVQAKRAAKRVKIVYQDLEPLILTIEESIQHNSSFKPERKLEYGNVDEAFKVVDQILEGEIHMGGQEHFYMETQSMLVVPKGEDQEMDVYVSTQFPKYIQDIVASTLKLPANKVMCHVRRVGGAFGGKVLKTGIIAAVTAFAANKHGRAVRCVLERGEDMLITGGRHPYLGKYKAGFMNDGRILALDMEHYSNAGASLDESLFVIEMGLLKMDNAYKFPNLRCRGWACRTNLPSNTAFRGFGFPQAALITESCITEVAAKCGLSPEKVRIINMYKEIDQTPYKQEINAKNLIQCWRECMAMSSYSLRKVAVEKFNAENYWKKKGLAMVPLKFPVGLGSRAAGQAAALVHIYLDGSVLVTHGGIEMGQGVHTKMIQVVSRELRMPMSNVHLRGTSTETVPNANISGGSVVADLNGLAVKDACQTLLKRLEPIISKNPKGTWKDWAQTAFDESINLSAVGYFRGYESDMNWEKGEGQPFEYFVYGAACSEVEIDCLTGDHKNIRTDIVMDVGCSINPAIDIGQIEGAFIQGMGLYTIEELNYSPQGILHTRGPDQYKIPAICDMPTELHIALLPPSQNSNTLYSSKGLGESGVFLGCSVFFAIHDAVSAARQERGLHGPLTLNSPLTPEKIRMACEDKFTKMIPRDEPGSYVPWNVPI
Sequence of UniProt Q9H2X6 (whole entry, looked up): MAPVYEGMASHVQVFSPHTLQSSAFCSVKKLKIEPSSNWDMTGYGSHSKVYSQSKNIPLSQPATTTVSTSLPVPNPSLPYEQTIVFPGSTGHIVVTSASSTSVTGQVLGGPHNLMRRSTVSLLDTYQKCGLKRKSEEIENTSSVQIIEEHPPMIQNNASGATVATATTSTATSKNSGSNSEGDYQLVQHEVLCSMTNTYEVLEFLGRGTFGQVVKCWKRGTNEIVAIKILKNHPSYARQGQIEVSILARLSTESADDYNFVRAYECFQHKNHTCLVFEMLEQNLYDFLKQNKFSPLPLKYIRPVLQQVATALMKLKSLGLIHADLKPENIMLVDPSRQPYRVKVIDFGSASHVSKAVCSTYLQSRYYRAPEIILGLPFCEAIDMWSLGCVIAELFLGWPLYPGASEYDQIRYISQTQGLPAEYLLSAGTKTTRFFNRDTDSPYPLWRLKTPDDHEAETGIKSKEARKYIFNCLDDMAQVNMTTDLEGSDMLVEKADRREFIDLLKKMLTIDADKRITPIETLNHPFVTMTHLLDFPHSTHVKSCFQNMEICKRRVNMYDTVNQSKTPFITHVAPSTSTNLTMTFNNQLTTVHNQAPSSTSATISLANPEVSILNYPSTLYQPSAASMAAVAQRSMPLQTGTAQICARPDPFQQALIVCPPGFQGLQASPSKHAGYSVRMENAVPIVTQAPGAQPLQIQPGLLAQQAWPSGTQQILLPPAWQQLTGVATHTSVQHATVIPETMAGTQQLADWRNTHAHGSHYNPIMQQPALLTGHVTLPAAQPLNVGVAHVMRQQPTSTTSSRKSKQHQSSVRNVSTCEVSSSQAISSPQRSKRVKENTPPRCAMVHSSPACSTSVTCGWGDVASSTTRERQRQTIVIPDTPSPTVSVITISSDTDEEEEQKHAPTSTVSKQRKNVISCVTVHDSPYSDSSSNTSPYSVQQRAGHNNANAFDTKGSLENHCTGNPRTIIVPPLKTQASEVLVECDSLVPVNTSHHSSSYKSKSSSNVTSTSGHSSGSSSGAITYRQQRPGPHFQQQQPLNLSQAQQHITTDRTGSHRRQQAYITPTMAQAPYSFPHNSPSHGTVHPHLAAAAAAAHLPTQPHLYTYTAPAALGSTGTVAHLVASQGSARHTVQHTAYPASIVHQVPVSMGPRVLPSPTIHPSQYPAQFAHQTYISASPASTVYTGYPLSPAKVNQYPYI
Sequence of UniProt P10632 (whole entry, looked up): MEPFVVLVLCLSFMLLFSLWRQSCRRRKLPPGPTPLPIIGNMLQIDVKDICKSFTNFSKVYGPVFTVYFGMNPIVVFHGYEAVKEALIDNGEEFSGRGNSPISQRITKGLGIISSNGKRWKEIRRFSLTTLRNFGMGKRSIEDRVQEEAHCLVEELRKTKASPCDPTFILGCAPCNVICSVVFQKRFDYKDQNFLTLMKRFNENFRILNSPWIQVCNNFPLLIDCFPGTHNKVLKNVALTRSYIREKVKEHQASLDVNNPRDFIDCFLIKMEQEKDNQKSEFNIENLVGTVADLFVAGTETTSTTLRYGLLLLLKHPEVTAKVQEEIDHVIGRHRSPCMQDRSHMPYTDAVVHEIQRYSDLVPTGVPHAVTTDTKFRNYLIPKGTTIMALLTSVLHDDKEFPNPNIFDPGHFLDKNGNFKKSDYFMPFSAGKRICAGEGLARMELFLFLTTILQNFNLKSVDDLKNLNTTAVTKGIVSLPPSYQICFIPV
Sequence of UniProt P08183 (whole entry, looked up): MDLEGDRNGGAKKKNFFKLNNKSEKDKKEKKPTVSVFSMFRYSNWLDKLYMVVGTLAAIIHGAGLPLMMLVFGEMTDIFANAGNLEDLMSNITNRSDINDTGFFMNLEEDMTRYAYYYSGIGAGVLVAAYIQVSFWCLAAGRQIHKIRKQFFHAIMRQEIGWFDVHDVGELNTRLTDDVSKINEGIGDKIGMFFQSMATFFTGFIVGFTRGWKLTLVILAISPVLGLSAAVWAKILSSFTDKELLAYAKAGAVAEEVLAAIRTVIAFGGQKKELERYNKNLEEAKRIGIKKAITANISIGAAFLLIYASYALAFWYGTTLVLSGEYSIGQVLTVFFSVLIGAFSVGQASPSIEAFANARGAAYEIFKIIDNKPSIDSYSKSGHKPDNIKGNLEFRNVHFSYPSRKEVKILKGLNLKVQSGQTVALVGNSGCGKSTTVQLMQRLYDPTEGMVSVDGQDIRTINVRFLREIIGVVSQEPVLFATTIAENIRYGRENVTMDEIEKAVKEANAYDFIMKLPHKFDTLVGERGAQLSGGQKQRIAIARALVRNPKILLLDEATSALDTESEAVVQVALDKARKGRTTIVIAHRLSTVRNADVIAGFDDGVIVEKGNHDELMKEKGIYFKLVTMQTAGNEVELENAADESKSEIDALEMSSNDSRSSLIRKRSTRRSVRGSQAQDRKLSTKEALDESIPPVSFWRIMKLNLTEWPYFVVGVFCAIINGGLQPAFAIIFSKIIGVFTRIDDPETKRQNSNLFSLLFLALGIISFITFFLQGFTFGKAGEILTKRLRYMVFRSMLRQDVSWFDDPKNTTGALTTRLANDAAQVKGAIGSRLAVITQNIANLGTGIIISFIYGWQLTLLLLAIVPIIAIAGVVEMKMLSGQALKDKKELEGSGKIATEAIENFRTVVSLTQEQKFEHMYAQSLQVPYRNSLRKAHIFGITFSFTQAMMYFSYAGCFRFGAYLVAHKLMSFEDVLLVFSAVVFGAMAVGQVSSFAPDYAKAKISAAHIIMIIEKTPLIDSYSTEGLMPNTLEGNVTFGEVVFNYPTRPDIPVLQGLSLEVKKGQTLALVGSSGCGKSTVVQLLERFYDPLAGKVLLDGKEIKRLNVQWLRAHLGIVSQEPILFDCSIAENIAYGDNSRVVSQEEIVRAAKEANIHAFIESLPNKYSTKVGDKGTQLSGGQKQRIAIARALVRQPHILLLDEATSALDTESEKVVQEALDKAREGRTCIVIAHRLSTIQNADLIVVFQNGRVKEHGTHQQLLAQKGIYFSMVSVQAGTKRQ

SMILES | tested on | assay | test system | conditions | how to read | endpoint | result
O=C(O)[C@H]1O[C@@H](OC(=O)[C@H](c2ccccc2Cl)N2CCc3sccc3C2)[C@H](O)[C@@H](O)[C@@H]1O | CYP2C8 (human) | inactivator |  |  |  | kinact | 2.82 h⁻¹
O=c1[nH]ncn1-c1ccc(N2CCN(c3ccc(OCC4COC(Cn5cncn5)(c5ccc(Cl)cc5Cl)O4)cc3)CC2)cc1 (stereo not drawn) | CYP3A4 | enzyme activity, competitive inhibitor |  |  |  | Ki | 0.32 nM
O=C1Nc2ccc(Cl)cc2[C@@](C#CC2CC2)(C(F)(F)F)O1 | CYP2A6 |  |  |  |  | CLint | 0.47 µL/min/mg protein
CC(=O)Nc1ccc(O)cc1 | UGT2B15 |  |  |  |  | Vmax | 36400 pmol/min/mg protein
O=C(O)CN(CCN(CC(=O)O)CC(=O)O)CC(=O)O | protonation constant |  |  | 0.15 M NaCl |  | log KH1 | 9.17
CO[C@H]1/C=C/O[C@@]2(C)Oc3c(C)c(O)c4c(O)c(c(/C=N/N5CCN(C)CC5)c(O)c4c3C2=O)NC(=O)/C(C)=C\C=C\[C@H](C)[C@H](O)[C@@H](C)[C@@H](O)[C@@H](C)[C@H](OC(C)=O)[C@@H]1C | OATP1B3 (SLCO1B3) OATP1B1 |  |  | literature geometric mean |  | IC50 | 1800 nM
CC(C)=CCc1c(O)cc(O)c2c1O[C@H](c1ccc(O)cc1)CC2=O | recombinant CYP1A2 (human) | enzyme activity, inhibitor |  | 10 µM, together with: acetanilide |  | inhibition | > 90%
Nc1cc(C(F)(F)F)c(-c2nc(N3CCOCC3)nc(N3CCOCC3)n2)cn1 | Homeodomain-interacting protein kinase 2 (HIPK2, Homo sapiens, UniProt Q9H2X6) | enzyme activity |  | 10 µM | reference: untreated | remaining activity | 100%
C[C@H]1O[C@@H](O[C@H]2[C@@H](O)C[C@H](O[C@H]3[C@@H](O)C[C@H](O[C@H]4CC[C@@]5(C)[C@H](CC[C@@H]6[C@@H]5C[C@@H](O)[C@]5(C)[C@@H](C7=CC(=O)OC7)CC[C@]65O)C4)O[C@@H]3C)O[C@@H]2C)C[C@H](O)[C@@H]1O | ATP-dependent translocase ABCB1 (ABCB1, Homo sapiens, UniProt P08183) | substrate | iPSC-derived intestinal cells |  |  | efflux ratio | 8.6 to 15.8
CC(C)n1c(=O)n(C)c2cnc3cc(F)c(-c4ccc(OCCCN5CCCCC5)nc4)cc3c21 | Aldehyde oxidase (Homo sapiens, UniProt Q06278) | substrate | human liver cytosol |  |  | half-life | 3.32 h
C=C[C@@H]1C[C@]1(NC(=O)[C@@H]1C[C@@H]2CN1C(=O)[C@H](C(C)(C)C)NC(=O)O[C@@H]1C[C@H]1CCCCCc1nc3ccc(OC)cc3nc1O2)C(=O)NS(=O)(=O)C1CC1 | OATP1B1 |  |  |  | literature minimum | IC50 | 322 nM
N[C@@H]1c2cccnc2[C@H](OC(=O)N2CCC(n3c(=O)[nH]c4ncccc43)CC2)CC[C@H]1c1cccc(F)c1F | CYP1A2 (human) |  | human liver microsomes |  |  | IC50 | > 40000 nM
COC(=O)N[C@@H](C)CNc1nccc(-c2cn(C(C)C)nc2-c2cc(Cl)cc(NS(C)(=O)=O)c2F)n1 | CYP3A (human) |  | human | human ADME study |  | contribution to metabolism | 83%
CO[C@H]1C[C@@H]2CC[C@@H](C)[C@@](O)(O2)C(=O)C(=O)N2CCCC[C@H]2C(=O)O[C@H]([C@H](C)C[C@@H]2CC[C@@H](O)[C@H](OC)C2)CC(=O)[C@H](C)/C=C(\C)[C@@H](O)[C@@H](OC)C(=O)[C@H](C)C[C@H](C)/C=C/C=C/C=C/1C | Cytochrome P450 2C8 (CYP2C8, Homo sapiens, UniProt P10632) | recombinant enzyme |  |  |  | intrinsic clearance | 0.25 µL/min/pmol CYP
Cc1ccc(C)c(OCCCC(C)(C)C(=O)O[C@@H]2O[C@H](C(=O)O)[C@@H](O)[C@H](O)[C@H]2O)c1 | OATP1B3 (SLCO1B3) OATP1B1 |  |  | literature geometric mean |  | IC50 | 14200 nM
COc1cc(N2CCC(N3CCN(C)CC3)CC2)ccc1Nc1ncc(Cl)c(Nc2ccccc2P(C)(C)=O)n1 | CYP3A (human) | drug interaction | human | 180 mg, together with: rifampin 600 mg | reference: compound alone | AUCinf decrease | 80%
C[C@H]1CN(C2COC2)CCN1c1ccc(Nc2cc(-c3ccnc(N4CCn5c(cc6c5CC(C)(C)C6)C4=O)c3CO)cn(C)c2=O)nc1 | OATP1B3 (SLCO1B3) OATP1B1 |  |  | literature geometric mean |  | IC50 | 19700 nM
OC(Cn1cncn1)(Cn1cncn1)c1ccc(F)cc1F | CYP2C19 human | inhibitor |  |  |  | Ki | 2000 nM
CN(C)C(=N)N=C(N)N | MATE |  | human liver failure patients |  |  | CLint | 300 mL/min
COC[C@H]1C[C@@H](c2ncc(-c3ccc4c(c3)COc3cc5c(ccc6nc([C@@H]7CC[C@H](C)N7C(=O)[C@@H](NC(=O)OC)C(C)C)[nH]c65)cc3-4)[nH]2)N(C(=O)[C@H](NC(=O)OC)c2ccccc2)C1 | OATP1B3 (SLCO1B3) OATP1B1 |  |  | literature geometric mean |  | IC50 | 1640 nM
C=CC(=O)Nc1cc(Nc2nccc(-c3cn(C)c4ccccc34)n2)c(OCC(F)(F)F)nc1N(C)CCN(C)C | CYP3A4 | enzyme induction, inducer | in vitro |  |  | EC50 | 250 nM

SMILES | tested on | assay | test system | conditions | how to read | endpoint | result
CN[C@@H](C)C(=O)N[C@H]1CN(S(=O)(=O)c2cccc(S(=O)(=O)N3CC[C@H]4CC[C@@H](C(=O)NC(c5ccccc5)c5ccccc5)N4C(=O)[C@@H](NC(=O)[C@H](C)NC)C3)c2)CC[C@H]2CC[C@@H](C(=O)NC(c3ccccc3)c3ccccc3)N2C1=O | other major human CYP450 enzymes | enzyme activity, inhibitor |  | concentration not given |  | inhibition | no inhibition
CCn1c(=O)c(-c2cc(NC(=O)Nc3ccccc3)c(F)cc2Br)cc2cnc(N)cc21 | human serum albumin |  |  |  |  | plasma protein binding | 99.7%
CCC(C)n1ncn(-c2ccc(N3CCN(c4ccc(OCC5COC(Cn6cncn6)(c6ccc(Cl)cc6Cl)O5)cc4)CC3)cc2)c1=O (stereo not drawn) | OATP1B3 |  |  |  | literature maximum | IC50 | 4000 nM
CO[C@H]1/C=C/O[C@@]2(C)Oc3c(C)c(O)c4c(O)c(c(/C=N/N5CCN(C)CC5)c(O)c4c3C2=O)NC(=O)/C(C)=C\C=C\[C@H](C)[C@H](O)[C@@H](C)[C@@H](O)[C@@H](C)[C@H](OC(C)=O)[C@@H]1C | OATP1B1 (human) | competitive inhibitor |  |  |  | Ki | 480 nM
C[C@]1(c2nc3c(C(N)=O)cccc3[nH]2)CCCN1 | OCT1/2 |  | OCT1/2 double-knockout mice |  | reference: wild type | plasma exposure increase | 1.5 fold
CC[C@H]1OC(=O)[C@H](C)[C@@H](O[C@H]2C[C@@](C)(OC)[C@@H](O)[C@H](C)O2)[C@H](C)[C@@H](O[C@@H]2O[C@H](C)C[C@H](N(C)C)[C@H]2O)[C@](C)(OC)C[C@@H](C)C(=O)[C@H](C)[C@@H](O)[C@]1(C)O | SLCO1B3 | inhibitor |  | Simcyp compound file |  | Ki | 700 nM
CC(O)c1cc(C(=O)N[C@@H](C)Cn2ccc(-c3ccc(C#N)c(Cl)c3)n2)[nH]n1 (stereo partly drawn) | OATP1B3 |  |  |  | literature minimum | IC50 | 5000 nM
Cc1ccc(C)c(OCCCC(C)(C)C(=O)O)c1 | OATP1B1 |  |  |  |  | Ki | 4000 to 381000 nM
O=C(O)CN1CCNCCN(CC(=O)O)CCN(CC(=O)O)CC1 | protonation constant |  |  | 0.15 M NaCl |  | log KH1 | 10.1
O=C(O)CN1CCN(CC(=O)O)CCN(CC(=O)O)CCN(CC(=O)O)CC1 | Cu(II) |  |  | stability constant |  | log K | 22.2
N#CCNC(=O)c1ccc(-c2ccnc(Nc3ccc(N4CCOCC4=O)cc3)n2)cc1 | CYP2B6 | enzyme activity, inhibitor |  | concentration not given |  | inhibition | no inhibition
CNCc1cn(S(=O)(=O)c2cccc(F)c2)c(-c2ccc(F)cc2F)c1OC | OATP1B3 | transporter uptake, inhibitor |  |  |  | IC50 | > 100000 nM
C=C[C@@H]1C[C@]1(NC(=O)[C@@H]1C[C@@H]2CN1C(=O)[C@H](C(C)(C)C)NC(=O)O[C@@H]1C[C@H]1CCCCCc1nc3ccc(OC)cc3nc1O2)C(=O)NS(=O)(=O)C1CC1 | human CYP3A4 | reversible inhibitor | human liver microsomes | together with: testosterone |  | IC50 | > 100000 nM
C=CC(=O)Nc1cc(Nc2nccc(-c3cn(C)c4ccccc34)n2)c(OC)cc1N(C)CCN(C)C | CYP2E1 |  |  |  |  | metabolism contribution | 3%
Cc1ccc(C)c(OCCCC(C)(C)C(=O)O)c1 | OATP1B3 |  |  |  | literature minimum | IC50 | 10000 nM
Cc1nc2ccc(F)cc2n1-c1nc(N)c(F)c(Nc2ccc(C(F)(F)F)cc2)n1 | CYP1A2 (human) | inhibitor | pooled human liver microsomes |  |  | Ki | 74 nM
Fc1c(F)c(F)c(Br)c(F)c1F | CYP2C19 |  |  | concentration not given |  | activity | inactive
CC(=O)C(C)n1ncn(-c2ccc(N3CCN(c4ccc(OC[C@H]5CO[C@](Cn6cncn6)(c6ccc(Cl)cc6Cl)O5)cc4)CC3)cc2)c1=O (stereo partly drawn) | CYP3A4 | substrate |  |  |  | kcat | 0.0065 s⁻¹
CC1(C)S[C@@H]2[C@H](NC(=O)[C@H](N)c3ccccc3)C(=O)N2[C@H]1C(=O)O | Escherichia coli |  | clinical isolate RKI-No_582/16 |  |  | MIC | > 16 µg/mL
CC(O)C(C)n1ncn(-c2ccc(N3CCN(c4ccc(OCC5COC(Cn6cncn6)(c6ccc(Cl)cc6Cl)O5)cc4)CC3)cc2)c1=O (stereo not drawn) | human CYP3A4 | substrate, measured: hydroxylation |  |  |  | Km | 0.027 µM
C#C[C@]1(O)CC[C@H]2[C@@H]3CCC4=CC(=NO)CC[C@@H]4[C@H]3CC[C@@]21CC (mixture of isomers) | CYP2B6 |  |  |  |  | fraction metabolized | 0.43

Some of these lines once more:
SMILES | tested on | assay | test system | conditions | how to read | endpoint | result
Nc1cc(C(F)(F)F)c(-c2nc(N3CCOCC3)nc(N3CCOCC3)n2)cn1 | Homeodomain-interacting protein kinase 2 (HIPK2, Homo sapiens, UniProt Q9H2X6) | enzyme activity |  | 10 µM | reference: untreated | remaining activity | 100%
N[C@@H]1c2cccnc2[C@H](OC(=O)N2CCC(n3c(=O)[nH]c4ncccc43)CC2)CC[C@H]1c1cccc(F)c1F | CYP1A2 (human) |  | human liver microsomes |  |  | IC50 | > 40000 nM
Cc1nc2ccc(F)cc2n1-c1nc(N)c(F)c(Nc2ccc(C(F)(F)F)cc2)n1 | CYP1A2 (human) | inhibitor | pooled human liver microsomes |  |  | Ki | 74 nM
CC1(C)S[C@@H]2[C@H](NC(=O)[C@H](N)c3ccccc3)C(=O)N2[C@H]1C(=O)O | Escherichia coli |  | clinical isolate RKI-No_582/16 |  |  | MIC | > 16 µg/mL
Cc1ccc(C)c(OCCCC(C)(C)C(=O)O[C@@H]2O[C@H](C(=O)O)[C@@H](O)[C@H](O)[C@H]2O)c1 | OATP1B3 (SLCO1B3) OATP1B1 |  |  | literature geometric mean |  | IC50 | 14200 nM
